Experimental data collected from several papers.
± gives the spread as reported.
MAPK14: Mitogen-activated protein kinase 14 (MAPK14, Homo sapiens, UniProt Q16539)
Chain of UniProt Q16539 (whole entry, looked up): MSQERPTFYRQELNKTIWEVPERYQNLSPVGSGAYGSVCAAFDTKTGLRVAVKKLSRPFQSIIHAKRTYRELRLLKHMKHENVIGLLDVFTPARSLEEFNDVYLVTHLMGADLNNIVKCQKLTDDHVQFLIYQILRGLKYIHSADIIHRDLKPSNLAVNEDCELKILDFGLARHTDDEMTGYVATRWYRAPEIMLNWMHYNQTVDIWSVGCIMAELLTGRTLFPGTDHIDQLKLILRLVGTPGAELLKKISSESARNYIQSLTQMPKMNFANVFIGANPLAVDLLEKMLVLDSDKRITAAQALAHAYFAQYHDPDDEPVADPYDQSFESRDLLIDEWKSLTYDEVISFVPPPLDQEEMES
T1: RNA aptamer; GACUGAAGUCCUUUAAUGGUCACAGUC
Chain of UniProt Q03431 (whole entry, looked up): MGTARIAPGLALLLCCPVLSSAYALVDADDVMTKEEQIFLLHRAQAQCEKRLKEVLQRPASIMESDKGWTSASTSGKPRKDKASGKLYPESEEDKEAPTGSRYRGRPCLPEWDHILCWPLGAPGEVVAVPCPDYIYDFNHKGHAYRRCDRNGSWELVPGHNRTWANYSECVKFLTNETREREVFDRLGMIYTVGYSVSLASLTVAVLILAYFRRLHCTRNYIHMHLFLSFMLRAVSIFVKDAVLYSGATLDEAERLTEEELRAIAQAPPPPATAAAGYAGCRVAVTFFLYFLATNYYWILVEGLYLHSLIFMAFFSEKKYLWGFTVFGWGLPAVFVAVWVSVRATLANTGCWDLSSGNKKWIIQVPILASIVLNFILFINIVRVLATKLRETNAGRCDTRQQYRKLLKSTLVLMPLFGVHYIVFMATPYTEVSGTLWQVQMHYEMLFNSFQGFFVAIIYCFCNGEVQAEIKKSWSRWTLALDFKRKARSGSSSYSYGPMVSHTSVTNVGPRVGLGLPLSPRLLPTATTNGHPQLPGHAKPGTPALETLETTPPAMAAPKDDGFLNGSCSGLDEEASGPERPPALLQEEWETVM
Chain of UniProt P43657 (whole entry, looked up): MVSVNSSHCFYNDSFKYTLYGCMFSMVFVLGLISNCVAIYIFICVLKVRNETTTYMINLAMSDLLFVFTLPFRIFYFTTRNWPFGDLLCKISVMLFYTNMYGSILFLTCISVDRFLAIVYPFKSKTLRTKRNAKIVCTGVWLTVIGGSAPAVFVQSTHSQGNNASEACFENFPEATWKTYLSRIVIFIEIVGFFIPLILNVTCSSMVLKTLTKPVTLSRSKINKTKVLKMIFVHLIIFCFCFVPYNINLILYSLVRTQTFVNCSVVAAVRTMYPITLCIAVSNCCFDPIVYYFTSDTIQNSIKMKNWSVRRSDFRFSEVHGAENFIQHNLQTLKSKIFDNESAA
Chain of UniProt Q9NZQ7 (whole entry, looked up): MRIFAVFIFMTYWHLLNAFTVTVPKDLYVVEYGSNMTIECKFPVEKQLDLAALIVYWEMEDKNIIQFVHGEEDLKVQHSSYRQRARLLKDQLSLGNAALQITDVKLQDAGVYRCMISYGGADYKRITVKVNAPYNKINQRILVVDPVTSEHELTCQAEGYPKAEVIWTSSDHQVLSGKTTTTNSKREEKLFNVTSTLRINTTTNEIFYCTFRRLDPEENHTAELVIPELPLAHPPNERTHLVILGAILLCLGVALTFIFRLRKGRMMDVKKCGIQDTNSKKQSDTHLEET
Chain of UniProt P23141 (whole entry, looked up): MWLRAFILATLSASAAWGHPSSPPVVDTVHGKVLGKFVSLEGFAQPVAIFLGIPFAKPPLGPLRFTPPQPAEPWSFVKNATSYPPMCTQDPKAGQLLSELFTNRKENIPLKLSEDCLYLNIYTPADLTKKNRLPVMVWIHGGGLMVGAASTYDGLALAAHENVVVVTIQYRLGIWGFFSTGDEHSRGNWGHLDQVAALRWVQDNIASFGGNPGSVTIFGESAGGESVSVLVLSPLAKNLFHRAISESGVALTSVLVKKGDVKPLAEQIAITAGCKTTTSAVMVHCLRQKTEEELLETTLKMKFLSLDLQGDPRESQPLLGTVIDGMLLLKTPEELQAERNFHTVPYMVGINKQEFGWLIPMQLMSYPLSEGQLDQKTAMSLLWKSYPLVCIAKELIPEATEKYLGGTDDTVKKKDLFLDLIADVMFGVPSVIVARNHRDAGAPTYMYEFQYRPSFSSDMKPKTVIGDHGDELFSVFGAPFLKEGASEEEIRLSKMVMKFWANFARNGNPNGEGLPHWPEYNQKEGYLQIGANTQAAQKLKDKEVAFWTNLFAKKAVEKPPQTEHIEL
Chain of UniProt P51654 (whole entry, looked up): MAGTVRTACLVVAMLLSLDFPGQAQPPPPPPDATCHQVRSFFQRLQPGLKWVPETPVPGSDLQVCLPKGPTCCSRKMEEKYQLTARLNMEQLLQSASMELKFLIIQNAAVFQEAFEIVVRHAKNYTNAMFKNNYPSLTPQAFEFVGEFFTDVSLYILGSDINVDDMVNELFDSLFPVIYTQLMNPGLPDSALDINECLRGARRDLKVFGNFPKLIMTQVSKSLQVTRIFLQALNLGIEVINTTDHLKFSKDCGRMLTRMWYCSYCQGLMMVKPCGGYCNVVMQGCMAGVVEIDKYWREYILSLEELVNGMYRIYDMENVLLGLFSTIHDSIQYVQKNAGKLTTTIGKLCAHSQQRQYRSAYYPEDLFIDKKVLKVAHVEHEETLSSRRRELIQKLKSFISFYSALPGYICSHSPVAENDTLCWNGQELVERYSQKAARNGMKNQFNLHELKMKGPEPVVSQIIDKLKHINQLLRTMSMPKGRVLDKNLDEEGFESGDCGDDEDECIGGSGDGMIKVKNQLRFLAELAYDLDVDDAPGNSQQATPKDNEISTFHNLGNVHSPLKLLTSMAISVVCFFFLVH
Chain of UniProt P22455 (whole entry, looked up): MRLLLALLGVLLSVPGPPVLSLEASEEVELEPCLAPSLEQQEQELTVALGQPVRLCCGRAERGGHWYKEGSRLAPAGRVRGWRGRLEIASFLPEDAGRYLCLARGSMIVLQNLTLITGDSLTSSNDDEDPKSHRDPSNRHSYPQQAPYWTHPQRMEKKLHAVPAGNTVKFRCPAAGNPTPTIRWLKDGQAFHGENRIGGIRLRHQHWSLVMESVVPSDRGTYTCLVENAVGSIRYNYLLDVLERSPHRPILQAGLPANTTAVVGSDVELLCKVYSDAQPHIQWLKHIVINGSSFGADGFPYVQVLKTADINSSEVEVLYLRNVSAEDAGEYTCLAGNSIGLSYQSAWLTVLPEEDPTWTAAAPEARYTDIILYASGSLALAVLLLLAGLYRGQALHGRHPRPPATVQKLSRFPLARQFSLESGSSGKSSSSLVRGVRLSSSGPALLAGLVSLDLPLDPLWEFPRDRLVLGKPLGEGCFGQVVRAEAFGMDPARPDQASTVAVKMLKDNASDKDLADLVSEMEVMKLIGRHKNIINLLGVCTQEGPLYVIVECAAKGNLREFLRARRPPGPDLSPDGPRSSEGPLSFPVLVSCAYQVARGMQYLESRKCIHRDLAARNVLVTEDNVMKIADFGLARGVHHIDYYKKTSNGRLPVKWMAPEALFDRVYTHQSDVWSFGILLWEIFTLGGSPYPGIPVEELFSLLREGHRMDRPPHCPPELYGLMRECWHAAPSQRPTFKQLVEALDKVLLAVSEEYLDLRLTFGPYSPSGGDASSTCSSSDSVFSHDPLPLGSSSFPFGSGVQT

| Structure (SMILES) | target | test | system | conditions | endpoint | value |
| --- | --- | --- | --- | --- | --- | --- |
| COc1nc(OCc2cccc(-c3ccccc3)c2C)ccc1CNCCNC(=O)CCCc1cn(CCC(=O)N[C@@H](CC(=O)O)C(=O)N[C@@H](Cc2c[nH]cn2)C(=O)N[C@@H](CC(C)C)C(=O)N[C@@H](C)C(=O)N[C@@H](CO)C(=O)N[C@@H](CC(C)C)C(=O)N[C@@H](Cc2c[nH]c3ccccc23)C(=O)N[C@@H](Cc2c[nH]c3ccccc23)C(=O)NCC(=O)N[C@H](C(=O)N[C@@H](CCC(=O)O)C(=O)N[C@@H](CC(C)C)C(=O)O)[C@@H](C)O)nn1 | GPC3/CD274 (Homo sapiens, UniProt P51654+Q9NZQ7) | PD-L1/GPC3 colocalization, confocal microscopy | HepG2 | 3 µM | Pearson correlation coefficient | 0.8 |
| CC(=O)N[C@H](Cc1ccc2ccccc2c1)C(=O)N[C@H](Cc1ccc(Cl)cc1)C(=O)N[C@H](Cc1cccnc1)C(=O)N[C@@H](CO)C(=O)N[C@@H](Cc1ccc[n+](C)c1)C(=O)N[C@H](CCCCNC(C)C)C(=O)N[C@@H](CC(C)C)C(=O)N[C@@H](CCCCNC(C)C)C(=O)N1CCC[C@H]1C(=O)N[C@H](C)C(N)=O | Gonadotropin-releasing hormone receptor (Gallus gallus, UniProt Q9DDC9) | inositol phosphate production, agonist | COS-7 transfected | 1 h | EC50 | 5.97 µM |
| CCCCCCCC/C=C\CCCCCCCC(=O)O[C@H]1C=CCO[C@@H]1COP(=O)(O)S (stereo partly drawn) | Lysophosphatidic acid receptor 6 (Homo sapiens, UniProt P43657) | agonist, TGFα shedding |  |  | Emax | 32% |
| NC[C@@H]1O[C@H](O[C@H]2[C@@H](O)[C@H](O[C@@H]3[C@@H](O)[C@H](N)C[C@H](N)[C@H]3O[C@H]3O[C@H](CN)[C@@H](O)[C@H](O)[C@H]3N)O[C@@H]2CO)[C@H](N)[C@@H](O)[C@@H]1O | T1, RNA aptamer | UV melting |  | 1 µM RNA, 10 µM molecule, pH 6.8, NaCl 100 mM | melting temperature change | 13.7 °C |
| CC(=O)NCCN(CC(=O)NCCN(CC(=O)NCCN(CC(=O)NCCC(N)=O)C(=O)C[C@@H](N)Cc1ccccc1)C(=O)C[C@@H](N)CCCNC(=N)N)C(=O)C[C@@H](N)CCCNC(=N)N | HIV-1 TAR RNA |  |  | concentration not given | heat capacity change ΔCp | -1.58 ± 0.14 kJ/mol/K |
| CC[C@H](C)[C@H](NC(=O)[C@H](CCC(=O)O)NC(=O)[C@H](CO)NC(=O)[C@@H](NC(=O)[C@@H](N)CO)C(C)C)C(=O)N[C@@H](CCC(N)=O)C(=O)N[C@@H](CC(C)C)C(=O)N[C@@H](CCSC)C(=O)N[C@@H](Cc1c[nH]cn1)C(=O)N[C@@H](CC(N)=O)C(=O)N[C@@H](CC(C)C)C(=O)NCC(=O)N[C@@H](CCCCN)C(=O)N[C@@H](Cc1c[nH]cn1)C(=O)N[C@@H](CC(C)C)C(=O)N[C@@H](CC(N)=O)C(=O)N[C@@H](CO)C(=O)N[C@@H](CCSC)C(=O)N[C@@H](CCC(=O)O)C(=O)N[C@@H](CCCNC(=N)N)C(=O)N[C@H](C(=O)N[C@@H](CCC(=O)O)C(=O)N[C@@H](Cc1c[nH]c2ccccc12)C(=O)N[C@@H](CC(C)C)C(=O)N[C@@H](CCCNC(=N)N)C(=O)N[C@@H](CCCCN)C(=O)N[C@@H](CCCCN)C(=O)N[C@@H](CC(C)C)C(=O)N[C@@H](CCC(N)=O)C(=O)N[C@@H](CC(=O)O)C(=O)N[C@H](C(=O)N[C@@H](Cc1c[nH]cn1)C(=O)N[C@@H](CC(N)=O)C(=O)N[C@@H](Cc1ccccc1)C(=O)N[C@@H](CCCCNC(=O)c1ccc2c(c1)C1(OC2=O)c2ccc(N(C)C)cc2Oc2cc(N(C)C)ccc21)C(N)=O)C(C)C)C(C)C | PTH1R (Homo sapiens, UniProt Q03431) | binding, NanoBRET | HEK293 |  | koff | 0.0051 ± 0.0006 s⁻¹ |
| CC(=O)NCCN(CC(=O)NCCN(CC(=O)NCCN(CC(=O)NCCC(N)=O)C(=O)[C@@H](N)CCCNC(=N)N)C(=O)[C@@H](N)CCCNC(=N)N)C(=O)[C@@H](N)Cc1ccccc1 | HIV-1 TAR RNA |  |  |  | non-electrostatic TΔS° | -6.98 ± 0.454 kcal/mol |
| Nc1nc(Nc2ccccc2)nc2ccccc12 | MAPK14 | enzyme activity |  |  | ligand efficiency | 0.23 |
| COc1cc(C(=O)NC2CCC(N3CCN(CC4CCC5(CCCC5)C4)CC3)CC2)c(F)cc1Nc1ncc2c(n1)N(C1CCCC1(F)F)CC(F)(F)C(=O)N2C (stereo not drawn) | FGFR4 (Homo sapiens, UniProt P22455) | cell-free assay, TR-FRET |  | 10 µM | inhibition | 2.84% |
| CCCCCCCC(=O)Nc1ccc(OC)nc1 | CES1 (Homo sapiens, UniProt P23141) | substrate |  | 50 µM, pH 8, 37 °C, enzyme purity 25% | specific activity | 24 pmol/min/µg |
| CC(C)CCC[C@@H](C)[C@H]1CC[C@H]2[C@@H]3CC=C4C[C@@H](OS(=O)(=O)O)CC[C@]4(C)[C@H]3CC[C@]12C | Prothrombin (F2, Homo sapiens, UniProt P00734) | enzyme activity, inhibitor |  | together with: unfractionated heparin 50 µM | Hill slope | 2.6 ± 0.4 |
| NC(=O)C1CCNC(=O)C(Cc2ccc([N+](=O)[O-])cc2)NC(=O)C(Cc2ccco2)NC(=O)C(CC2CC2)NC(=O)C=CC(=O)N1 (stereo not drawn) | MAPK14 | DNA-templated library selection |  | one selection round | enrichment factor | 1.7 |

A few entries again:
| Structure (SMILES) | target | test | system | conditions | endpoint | value |
| --- | --- | --- | --- | --- | --- | --- |
| CC(=O)N[C@H](Cc1ccc2ccccc2c1)C(=O)N[C@H](Cc1ccc(Cl)cc1)C(=O)N[C@H](Cc1cccnc1)C(=O)N[C@@H](CO)C(=O)N[C@@H](Cc1ccc[n+](C)c1)C(=O)N[C@H](CCCCNC(C)C)C(=O)N[C@@H](CC(C)C)C(=O)N[C@@H](CCCCNC(C)C)C(=O)N1CCC[C@H]1C(=O)N[C@H](C)C(N)=O | Gonadotropin-releasing hormone receptor (Gallus gallus, UniProt Q9DDC9) | inositol phosphate production, agonist | COS-7 transfected | 1 h | EC50 | 5.97 µM |
| CCCCCCCC/C=C\CCCCCCCC(=O)O[C@H]1C=CCO[C@@H]1COP(=O)(O)S (stereo partly drawn) | Lysophosphatidic acid receptor 6 (Homo sapiens, UniProt P43657) | agonist, TGFα shedding |  |  | Emax | 32% |
